{"data": "Assay results from different studies", "note": "Each numbered part is a random draw from the data of one study; scales do not carry over between parts."}
{"data": "Set 1", "target": "Sal-like protein 4, full length isoform B (SALL4, Homo sapiens, UniProt Q9UJQ4-2, residues 1-616)", "method": "universal PBM", "form": "double-stranded DNA, one strand shown", "medium": "in vitro", "tested at": "not given", "setting": "8-mer, flanks averaged, mean of replicates", "direction": "higher = stronger binding", "Target sequence (chain)": "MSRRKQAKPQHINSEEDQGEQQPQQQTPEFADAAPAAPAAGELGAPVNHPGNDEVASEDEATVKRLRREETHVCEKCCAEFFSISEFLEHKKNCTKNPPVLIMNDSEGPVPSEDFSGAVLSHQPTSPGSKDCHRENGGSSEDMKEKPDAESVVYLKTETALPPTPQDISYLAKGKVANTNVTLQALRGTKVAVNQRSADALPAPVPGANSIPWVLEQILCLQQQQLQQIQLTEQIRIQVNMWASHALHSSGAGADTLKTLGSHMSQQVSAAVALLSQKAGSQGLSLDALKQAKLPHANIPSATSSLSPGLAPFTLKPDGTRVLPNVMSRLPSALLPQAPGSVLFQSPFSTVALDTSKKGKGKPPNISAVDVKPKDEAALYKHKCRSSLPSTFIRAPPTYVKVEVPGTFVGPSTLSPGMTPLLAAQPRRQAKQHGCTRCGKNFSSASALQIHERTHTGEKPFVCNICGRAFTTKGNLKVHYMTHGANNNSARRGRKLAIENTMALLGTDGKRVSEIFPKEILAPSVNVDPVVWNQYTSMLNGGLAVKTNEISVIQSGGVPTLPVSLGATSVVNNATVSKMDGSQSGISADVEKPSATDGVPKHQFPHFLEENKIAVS"}
{"Sequence": "AACCGACA", "E-score": 0.0406}
{"Sequence": "TGACGTAA", "E-score": 0.179}
{"Sequence": "AGGGCTCA", "E-score": -0.15}
{"Sequence": "GTGGTCCA", "E-score": -0.207}
{"Sequence": "CAAGGCTG", "E-score": -0.189}
{"Sequence": "AACTTGCG", "E-score": -0.219}
{"Sequence": "GAAATCGC", "E-score": -0.119}
{"Sequence": "TTGCCCAA", "E-score": 0.058}
{"Sequence": "CAGCCGGG", "E-score": -0.394}
{"Sequence": "CAAGACTG", "E-score": 0.104}
{"Sequence": "ATCTTGTA", "E-score": 0.203}
{"Sequence": "GAATCGGA", "E-score": 0.0182}
{"Sequence": "ACCGTTCG", "E-score": -0.0552}
{"Sequence": "CAAGTCAC", "E-score": 0.0542}
{"Sequence": "CTTACCAC", "E-score": -0.0408}
{"Sequence": "CGGCATTC", "E-score": -0.135}
{"Sequence": "AGGATGCA", "E-score": -0.229}
{"Sequence": "GGAACCCA", "E-score": -0.268}
{"Sequence": "AGTGGGCA", "E-score": -0.0782}
{"data": "Set 2", "target": "Interferon regulatory factor 7, full length, phosphomimetic (IRF7, Homo sapiens, UniProt Q92985, residues 1-503, S101K/S471D/S472D/S475D/S476D/S477D/S483D/S484D/S487D)", "method": "protein-binding microarray", "form": "double-stranded DNA, one strand shown", "medium": "in vitro", "tested at": "250 nM", "setting": "60-bp whole probe", "with": "salmon DNA 0.4 mg/ml", "relative to": "random background probes", "direction": "higher = stronger binding", "all sequences stand within": "GCCTAGCAC … GTCTTGATTCGCTTGACGCTGCTG", "sequence of UniProt Q92985 (whole entry, unmodified, looked up)": "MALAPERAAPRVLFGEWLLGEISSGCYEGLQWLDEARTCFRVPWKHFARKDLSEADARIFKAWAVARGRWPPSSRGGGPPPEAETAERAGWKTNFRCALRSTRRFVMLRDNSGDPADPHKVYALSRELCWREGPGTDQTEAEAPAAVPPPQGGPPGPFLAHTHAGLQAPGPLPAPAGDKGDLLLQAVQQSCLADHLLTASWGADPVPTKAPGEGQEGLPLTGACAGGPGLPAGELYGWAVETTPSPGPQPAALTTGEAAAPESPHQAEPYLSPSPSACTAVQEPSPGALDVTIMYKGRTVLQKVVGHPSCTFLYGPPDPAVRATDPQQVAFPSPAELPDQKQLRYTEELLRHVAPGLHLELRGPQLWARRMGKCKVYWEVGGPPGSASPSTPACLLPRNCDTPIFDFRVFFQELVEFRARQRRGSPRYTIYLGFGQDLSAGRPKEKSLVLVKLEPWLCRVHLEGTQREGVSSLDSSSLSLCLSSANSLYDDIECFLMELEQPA"}
{"Sequence": "TTAGGTTTCGGTTTCGATTAGTGCTAG", "log fluorescence": "16.1 z-score"}
{"Sequence": "TTAGGTCTCGGTTTAGGTTAGTGCTAG", "log fluorescence": "7.76 z-score"}
{"Sequence": "TCAGATTGGTTGAACATACTGTGCTAG", "log fluorescence": "-0.135 z-score"}
{"Sequence": "GACGGTCTAGGTTTCGGGACGTGCTAG", "log fluorescence": "1.97 z-score"}
{"Sequence": "GACTGTCTCGGTATCGGGACGTGCTAG", "log fluorescence": "0.95 z-score"}
{"Sequence": "TTAGTTTTCGGTTTCGGTTAGTGCTAG", "log fluorescence": "12.8 z-score"}
{"Sequence": "TTAGATTCCAGTTTCGTTTAGTGCTAG", "log fluorescence": "10.5 z-score"}
{"Sequence": "TTAGATTTCAGTCTCGATCAGTGCTAG", "log fluorescence": "0.917 z-score"}
{"Sequence": "CTTGCTTGGTGTCTCTGGCCGTGCTAG", "log fluorescence": "-0.535 z-score"}
{"Sequence": "GACGGTTTCGGTATCGGGAGGTGCTAG", "log fluorescence": "10.8 z-score"}
{"Sequence": "ATGTGTTTAAGAATGTTTTTGTGCTAG", "log fluorescence": "0.197 z-score"}
{"Sequence": "TCCTGCTGTACCCCTAGGGCGTGCTAG", "log fluorescence": "-0.217 z-score"}
{"Sequence": "GACGATTTCCGACTGGAGACGTGCTAG", "log fluorescence": "0.538 z-score"}
{"Sequence": "GACGGTCTCCTACTGCTTACGTGCTAG", "log fluorescence": "-0.501 z-score"}
{"Sequence": "TTAGGTCTCCTATTGCTTTAGTGCTAG", "log fluorescence": "0.39 z-score"}
{"Sequence": "GACTAACTGAGTATCGAGACGTGCTAG", "log fluorescence": "0.19 z-score"}
{"Sequence": "TCATGGATATATATCATACTGTGCTAG", "log fluorescence": "-0.16 z-score"}
{"Sequence": "GACGGTTTCGGGCATCGGGACGTGCTA", "log fluorescence": "2.18 z-score"}
{"Sequence": "TTAGAACTGAGTTTGGATTAGTGCTAG", "log fluorescence": "-0.0844 z-score"}
{"Sequence": "TTAGGTCCCGGTCTCGGTTAGTGCTAG", "log fluorescence": "2.3 z-score"}
{"Sequence": "TCATCTTTACTTCACTCACTGTGCTAG", "log fluorescence": "0.735 z-score"}
{"Sequence": "GTCGGTCTCGGTATCGGGACGTGCTAG", "log fluorescence": "2.88 z-score"}
{"Sequence": "TAAGGTCTCCTTATCCTTTAGTGCTAG", "log fluorescence": "0.43 z-score"}
{"Sequence": "GTGTTTCTCAAATGTTTTGTTGTGCTA", "log fluorescence": "2.04 z-score"}
{"Sequence": "TTAGAACTGGTGTATCGATTAGTGCTA", "log fluorescence": "-0.362 z-score"}
{"data": "Set 3", "target": "RING finger protein unkempt homolog, zinc fingers 1-6, SBP tag (UNK, Homo sapiens, UniProt Q9C0B0, residues 30-357)", "method": "RNA Bind-n-Seq", "form": "RNA", "medium": "in vitro", "tested at": "100 nM", "setting": "RNA with constant flanks, vertebrate orthologous sites, ends assumed", "relative to": "input RNA pool", "direction": "higher = stronger binding", "all sequences stand within": "GGGAGUUCUACAGUCCGACGAUC … CAACAGAGGAUUGAGCAUCA", "sequence of UniProt Q9C0B0 (30-357, looked up)": "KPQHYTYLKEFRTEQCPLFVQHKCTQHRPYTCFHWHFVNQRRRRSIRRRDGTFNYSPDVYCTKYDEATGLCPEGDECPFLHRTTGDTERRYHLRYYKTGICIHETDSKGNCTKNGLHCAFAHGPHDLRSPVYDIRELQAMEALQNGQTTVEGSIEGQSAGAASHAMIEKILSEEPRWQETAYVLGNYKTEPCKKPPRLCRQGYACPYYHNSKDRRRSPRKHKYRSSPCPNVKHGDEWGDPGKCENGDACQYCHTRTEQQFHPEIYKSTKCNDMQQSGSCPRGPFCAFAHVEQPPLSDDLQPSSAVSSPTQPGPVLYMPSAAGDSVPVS"}
{"Sequence": "ACGGCAGGUCUAGGACCUGCUGCUCAGAGUAGCAUACGAGCCGCUUCAGCCCGGCCAUUUUGGCUCCGUUUUUUAACAGUGCCCUUAUUAUCCUGUAUAUAUGCCUGAGAUUUGGAAAUA", "bound/input enrichment": "0.385 ratio"}
{"Sequence": "AUUCAAACCUGUGGUGCCAUGGCCUCAUGUUGAAGGAAUAGAAGUGGACUUAGAGUCUAUUAGAAGAAAAAACAAAGCUAAAAAUGAACAAGAGCACCAUGCUGGAGGAGAUUCCCAGAA", "bound/input enrichment": "0.599 ratio"}
{"Sequence": "UCAGUCUUCCACUUAGGGUCGGCCUCAAAUCUAUAGGAUCUAUGACAAAUGUAUUAUAUCUAGUUAAGUUGAGUUUAAUAUUUUUUUAUUAGCCUGUAAAUAAAGAUGGCAUCUUCUACA", "bound/input enrichment": "0.533 ratio"}
{"Sequence": "GCUCUAGUUCUUAACAACCGACACUCCUAAAAGAUUUAGAAAAAAGUUUACAACAUAAUCUAGUUUACAGAAAAAUCUUGUGCUAGAAUACUUUUUAAAAGGUAUUUUGAAUAUCAUUAA", "bound/input enrichment": "0.636 ratio"}
{"Sequence": "UGUCUGCCUCAUUCUAAAAUUUACACAGUAGACCAUUUGUCAUCCAUGCUGUCCCACAAAUAGUUUUUUGUUUACGAUUUAUGACAGGUUUAUGUUACUUCUAUUGGAAUUUCUGUAUUU", "bound/input enrichment": "1.41 ratio"}
{"Sequence": "AACUGCUGGAGCAGAGUGCUCUGUCGGCACCAGUGGCCACCAUCCCUUCACACCACUGUCCUACUUACAGGAAUUUAAUAUUUUUAAAAGUUUUACAAUUCUGUAUAUUCAAAGAUUGUU", "bound/input enrichment": "0.25 ratio"}
{"Sequence": "AAUAUUAUUAACAUCGUCUUCCUGUAUGGUUUUUUUUUUUUGUUUUUGUACCCUAGUAUCUACUUUACUUUUUAAAAUCUCAGACUUCACUGAUCUCUGAAUUGAUCCAGUUUUACAUUG", "bound/input enrichment": "0.576 ratio"}
{"Sequence": "AGUCAUGGAGAAGAAGAUACUAAAGAUAAUCUCAUGGCACUGAUAUUAAUUUAUUUUUAUUAGUUUUACAAAAGUUAGGGUUCUUGUUUAUAAACAGCAGGUACUGACUAUUAAGGCAAA", "bound/input enrichment": "0.364 ratio"}
{"Sequence": "CUACUAUAAACAACUCAGGGCAGUAUUCUCGAUAUCCUUACAGUAACCUAAAUCAGGGAUUAGUUAACAAUACAGGGAUGAAUCAGAAUUUAGGCCUUACAAAUAACACUCCAAUGAAUC", "bound/input enrichment": "1.14 ratio"}
{"Sequence": "UCAUUGUACUGCAAAAAUCAUCUUCGUUUUAAUUUAGCCACAGUGAUAACUAGUCUGCACUAGUAGAAUCAUUUACCUUUUAAAUUAUCUGCUUUGUCUGAUACCUGAAACACAUCAAAA", "bound/input enrichment": "0.385 ratio"}
{"Sequence": "AUCCCUCAGUGACAGUAUGCCAUCUGUAGCAGAUUCCCACUCUAGCCAUUUUUCUGAAUUUAGUUGUUCUGACCUAGAAAGCAUGAAAACUUCUUGUAGUCAUGGUUCCAAUGAUUAUCA", "bound/input enrichment": "4.01 ratio"}
{"data": "Set 4", "target": "RNA binding protein fox-1 homolog 2, RRM domain, GST-SBP tag (RBFOX2, Homo sapiens, UniProt O43251-10, residues 100-194)", "method": "RNA Bind-n-Seq", "form": "RNA", "medium": "in vitro", "tested at": "365 nM", "setting": "natural RNA segment, single round, ends assumed", "relative to": "no-protein control", "direction": "higher = stronger binding", "all sequences stand within": "GGGAGUUCUACAGUCCGACGAUC … UGGAAUUCUCGGGUGCCAA", "Residues (chain)": "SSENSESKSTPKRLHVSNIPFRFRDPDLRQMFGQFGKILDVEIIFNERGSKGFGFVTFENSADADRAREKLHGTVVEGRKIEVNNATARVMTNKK"}
{"Sequence": "CCUGAGAGCCCAGCCAGGGCCCAUGUGGUCUGCAAAUGGGAGCGGCUGUUUUUGAACACGGGGUCAUUCUGCAGUCAGGACGAACCGGUCCCCGUCGCAGACGGAGUGCA", "RBNS enrichment (R)": 2.96}
{"Sequence": "AUGGGGGCCCAAAGCUCAGGGCUGGGGAGCCUGGGGUCCCCACUUGAAUCUCCAGCAGGAGGGUCCUUCUCUCCCUGGCCCGUCCUCCUCCCACCCCCUCCCCCUGGGGG", "RBNS enrichment (R)": 0.421}
{"Sequence": "AGGCUUCCGCCAAGCUCUGGUCCCGAAGAGGCUGUGCGAGCCCUUCCCGGCCCUCCCCAGGGCCCCCCGCCCCCUCCUCUGCCUGCUGCGUGGAGGCAGCCAUGGGAAGG", "RBNS enrichment (R)": 0.329}
{"Sequence": "UGGCUCGGGCCAGACUUCAUCCAUUUAGAGAGAAGCAGUACUUCCUGUUUGUGUGCCCAUCUUAAAUACCUUGAAAAGUACUAUGUCCCAGGUGGUGUCAUGGAUGCUUU", "RBNS enrichment (R)": 0.325}
{"Sequence": "AACUUUUAUCUAUUCUGAGAAAACAAGCAAGUUCUGAGAGCCAGGGUUUUCCUACGUAGGAUGAAAAGAUUCUUCUGUGUUUAUAAAAUAUAAACAAAGAUUCAUGAUUU", "RBNS enrichment (R)": 0.64}
{"Sequence": "AAGCAGCCAACAGGCUCCCUCUCACUUAAGAGAGUUCUAAUUAAUAACACUAAAUUCUUCCUGAGAAAUGACUCCUCUUGGUUUGGUUUGAAGUUUUUCAGUGAAGGAAA", "RBNS enrichment (R)": 0.458}
{"Sequence": "AUGUAUACUUGGUGGUAGAGGGCUUGCUUGAAGACCCAAGUUCCAUCCCUAGCACCACAGAGCAGGGAGGGGACACAGAUUUAGGAGAGAUUUGUCUUUUUCUCCUUUGG", "RBNS enrichment (R)": 0.362}
{"Sequence": "AUAUUAGAACAGCGGAGGCUCUAAAAGCCCAGGAUUCUACUCAGUUAUGAAUGAAAAUCAAACGAAGAUCCAAGCUGUACUGAUGUCAGAGGGAUGGUUCCAUUUUGACA", "RBNS enrichment (R)": 0.403}
{"Sequence": "UAUUAUAUUUGGAUGCAGAGUUCAGGGAAGAUAAGUUGGAAACACUAAAUGUUAAAGAUGUAGCAAACCCUGUCAAACAUUAGUACUUUAUAGAAGAAUGCAUGCUUUCC", "RBNS enrichment (R)": 17.2}
